Measurements pooled from the literature.
Every numbered part comes from another study and shows a few of its results, in no order.
Chain of UniProt Q2M2I8 (whole entry, looked up): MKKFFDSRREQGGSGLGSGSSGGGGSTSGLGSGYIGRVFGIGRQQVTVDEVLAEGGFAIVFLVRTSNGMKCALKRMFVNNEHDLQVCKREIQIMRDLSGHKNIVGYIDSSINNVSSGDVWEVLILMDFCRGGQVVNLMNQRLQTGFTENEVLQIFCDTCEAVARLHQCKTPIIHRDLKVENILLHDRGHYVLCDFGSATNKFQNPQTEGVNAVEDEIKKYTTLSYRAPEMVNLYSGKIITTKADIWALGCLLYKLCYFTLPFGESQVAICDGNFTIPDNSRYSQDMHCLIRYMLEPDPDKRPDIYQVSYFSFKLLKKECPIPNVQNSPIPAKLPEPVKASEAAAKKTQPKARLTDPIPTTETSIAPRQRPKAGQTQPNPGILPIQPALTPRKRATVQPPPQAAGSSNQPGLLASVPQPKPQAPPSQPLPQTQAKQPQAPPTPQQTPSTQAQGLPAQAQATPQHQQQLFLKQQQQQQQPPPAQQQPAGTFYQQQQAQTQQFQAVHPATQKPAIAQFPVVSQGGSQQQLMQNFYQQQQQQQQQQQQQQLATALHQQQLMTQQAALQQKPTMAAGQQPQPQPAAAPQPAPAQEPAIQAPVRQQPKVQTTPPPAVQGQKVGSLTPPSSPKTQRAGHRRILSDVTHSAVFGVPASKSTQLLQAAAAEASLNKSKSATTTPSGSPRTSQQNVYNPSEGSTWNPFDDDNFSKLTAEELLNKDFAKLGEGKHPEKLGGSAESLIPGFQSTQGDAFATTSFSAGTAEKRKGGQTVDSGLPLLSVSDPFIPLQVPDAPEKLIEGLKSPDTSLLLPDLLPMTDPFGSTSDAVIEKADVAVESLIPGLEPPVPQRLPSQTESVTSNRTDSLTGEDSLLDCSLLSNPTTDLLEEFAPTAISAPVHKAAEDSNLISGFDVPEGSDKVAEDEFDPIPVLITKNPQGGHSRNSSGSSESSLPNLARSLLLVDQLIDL

Series 1 — method: PRP chromatography estimate; matrix: 1,9-decadiene/PBS; pH: 7.4; endpoint: logD
CC(C)C[C@@H]1NC(=O)[C@H](CC(C)C)NC(=O)[C@H](CC(C)C)NC(=O)[C@H](C(C)C)NC(=O)[C@H](C)NC(=O)[C@H](Cc2cscn2)NC(=O)[C@H](CCC(=O)N2CCCC2)NC1=O: -1.93
CC(C)C[C@@H]1NC(=O)[C@H](CC(C)C)NC(=O)[C@H](CC(C)C)NC(=O)[C@H](CC(C)C)NC(=O)[C@@H](Cc2cscn2)NC(=O)[C@H](C)NC(=O)[C@H](CCC(=O)N2CCCC2)NC1=O: -1.7
CCC[C@H]1NC(=O)CSC[C@@H](C(=O)OCC)N(C)C(=O)[C@H](CC(C)C)NC(=O)[C@H](C)N(C)C(=O)[C@H](CC(C)C)NC(=O)[C@H](C)N(C)C(=O)[C@@H]2CCCN2C(=O)[C@@H](CC(C)C)NC(=O)CN(C)C1=O: -0.501
CC(C)C[C@@H]1NC(=O)[C@H](CC(C)C)NC(=O)[C@@H](C(C)C)NC(=O)[C@H](C(C)C)NC(=O)[C@H](C)NC(=O)[C@@H](CC(C)C)NC(=O)[C@H](C)NC1=O: -1.31

Series 2 — organism: Sarcocystis neurona; effect on: parasite growth; concentration: 10 µM; endpoint: inhibition
O=C(NCCN1CCOCC1)c1ccc(Cl)cc1: -33.4%
NC1CCN(c2nc3c(cc2F)c(=O)c(C(=O)O)cn3-c2ccc(F)cc2F)C1 (centres unmarked): 10.5%
CC(COc1ccccc1)N(CCCl)Cc1ccccc1 (centres unmarked): -26.6%
CC(=O)/N=c1/sc(S(N)(=O)=O)nn1C: -19.8%

Series 3 — species: mouse; matrix: microsomes or S9; concentration: 2 µM; time: 0.5 h; endpoint: remaining compound
Cc1nc2nc(C)c(Cc3cccc4ccccc34)c(O)n2n1: 52.7%
O=C1c2ccccc2CN1C(c1cccc(F)c1)c1nc2cncnc2[nH]1 (centres unmarked): 99.7%
Cc1c(O)ccc2c(CSc3n[nH]c4nc5ccccc5n34)cc(=O)oc12: 2.01%
CCCc1cc(-c2nc(Cc3nn4c(C(C)C)nnc4s3)cs2)ccn1: > 99%

Single results of other studies
CNC(=O)Nc1ccc2c(c1)C1(CC2)OC(=O)N(CC(=O)N(Cc2ccc(F)cc2)[C@@H](C)C(F)(F)F)C1=O (single isomer, unassigned)  remaining binding (AAK1 (Homo sapiens, UniProt Q2M2I8); KINOMEscan; 1 µM; relative to: control): 100%
O=C(O)[C@H]1[C@H](Cn2nnc3ccccc3c2=O)CC[C@@H]1C(=O)c1ccc(OCCC2CCOCC2)cc1  viability (sample G normal colon organoids; CellTiter-Glo; human patient-derived organoids; 0.1 µM, 4 days; relative to: DMSO control): 135%

Repeated from above (series 2):
CC(=O)/N=c1/sc(S(N)(=O)=O)nn1C: -19.8%
CC(COc1ccccc1)N(CCCl)Cc1ccccc1 (centres unmarked): -26.6%
